Measurements pooled from the literature.
Protocols differ between the studies behind these lines. Several values in a cell are separate wells, animals, samples, runs or records. Numbers after ± are the reported error.
CDC48A: CDC48A 1-463 (Arabidopsis thaliana, UniProt P54609)
Chain of UniProt P54609 (whole entry, looked up): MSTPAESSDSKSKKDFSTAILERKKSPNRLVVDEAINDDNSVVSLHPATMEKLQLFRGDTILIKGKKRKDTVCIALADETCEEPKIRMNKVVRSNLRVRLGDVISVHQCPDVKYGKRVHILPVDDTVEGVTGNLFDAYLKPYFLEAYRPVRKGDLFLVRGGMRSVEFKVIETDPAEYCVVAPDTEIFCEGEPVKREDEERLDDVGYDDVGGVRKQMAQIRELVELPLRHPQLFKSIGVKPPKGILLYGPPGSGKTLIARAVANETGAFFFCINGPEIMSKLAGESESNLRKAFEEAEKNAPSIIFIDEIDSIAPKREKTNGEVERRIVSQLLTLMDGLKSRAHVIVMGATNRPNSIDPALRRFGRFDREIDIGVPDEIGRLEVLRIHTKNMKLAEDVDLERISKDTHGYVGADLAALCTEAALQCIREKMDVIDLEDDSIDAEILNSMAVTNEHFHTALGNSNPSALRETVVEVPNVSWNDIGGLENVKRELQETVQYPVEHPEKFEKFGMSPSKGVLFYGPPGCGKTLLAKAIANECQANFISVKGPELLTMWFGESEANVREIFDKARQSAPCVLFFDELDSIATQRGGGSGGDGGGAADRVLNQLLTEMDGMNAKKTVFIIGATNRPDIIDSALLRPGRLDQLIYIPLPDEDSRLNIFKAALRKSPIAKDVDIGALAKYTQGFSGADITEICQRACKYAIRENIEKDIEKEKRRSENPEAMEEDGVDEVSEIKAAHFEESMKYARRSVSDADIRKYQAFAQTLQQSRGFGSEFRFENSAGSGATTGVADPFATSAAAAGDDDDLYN
C3: C3 996-1303 (Homo sapiens, UniProt P01024)
Chain of UniProt P01024 (whole entry, looked up): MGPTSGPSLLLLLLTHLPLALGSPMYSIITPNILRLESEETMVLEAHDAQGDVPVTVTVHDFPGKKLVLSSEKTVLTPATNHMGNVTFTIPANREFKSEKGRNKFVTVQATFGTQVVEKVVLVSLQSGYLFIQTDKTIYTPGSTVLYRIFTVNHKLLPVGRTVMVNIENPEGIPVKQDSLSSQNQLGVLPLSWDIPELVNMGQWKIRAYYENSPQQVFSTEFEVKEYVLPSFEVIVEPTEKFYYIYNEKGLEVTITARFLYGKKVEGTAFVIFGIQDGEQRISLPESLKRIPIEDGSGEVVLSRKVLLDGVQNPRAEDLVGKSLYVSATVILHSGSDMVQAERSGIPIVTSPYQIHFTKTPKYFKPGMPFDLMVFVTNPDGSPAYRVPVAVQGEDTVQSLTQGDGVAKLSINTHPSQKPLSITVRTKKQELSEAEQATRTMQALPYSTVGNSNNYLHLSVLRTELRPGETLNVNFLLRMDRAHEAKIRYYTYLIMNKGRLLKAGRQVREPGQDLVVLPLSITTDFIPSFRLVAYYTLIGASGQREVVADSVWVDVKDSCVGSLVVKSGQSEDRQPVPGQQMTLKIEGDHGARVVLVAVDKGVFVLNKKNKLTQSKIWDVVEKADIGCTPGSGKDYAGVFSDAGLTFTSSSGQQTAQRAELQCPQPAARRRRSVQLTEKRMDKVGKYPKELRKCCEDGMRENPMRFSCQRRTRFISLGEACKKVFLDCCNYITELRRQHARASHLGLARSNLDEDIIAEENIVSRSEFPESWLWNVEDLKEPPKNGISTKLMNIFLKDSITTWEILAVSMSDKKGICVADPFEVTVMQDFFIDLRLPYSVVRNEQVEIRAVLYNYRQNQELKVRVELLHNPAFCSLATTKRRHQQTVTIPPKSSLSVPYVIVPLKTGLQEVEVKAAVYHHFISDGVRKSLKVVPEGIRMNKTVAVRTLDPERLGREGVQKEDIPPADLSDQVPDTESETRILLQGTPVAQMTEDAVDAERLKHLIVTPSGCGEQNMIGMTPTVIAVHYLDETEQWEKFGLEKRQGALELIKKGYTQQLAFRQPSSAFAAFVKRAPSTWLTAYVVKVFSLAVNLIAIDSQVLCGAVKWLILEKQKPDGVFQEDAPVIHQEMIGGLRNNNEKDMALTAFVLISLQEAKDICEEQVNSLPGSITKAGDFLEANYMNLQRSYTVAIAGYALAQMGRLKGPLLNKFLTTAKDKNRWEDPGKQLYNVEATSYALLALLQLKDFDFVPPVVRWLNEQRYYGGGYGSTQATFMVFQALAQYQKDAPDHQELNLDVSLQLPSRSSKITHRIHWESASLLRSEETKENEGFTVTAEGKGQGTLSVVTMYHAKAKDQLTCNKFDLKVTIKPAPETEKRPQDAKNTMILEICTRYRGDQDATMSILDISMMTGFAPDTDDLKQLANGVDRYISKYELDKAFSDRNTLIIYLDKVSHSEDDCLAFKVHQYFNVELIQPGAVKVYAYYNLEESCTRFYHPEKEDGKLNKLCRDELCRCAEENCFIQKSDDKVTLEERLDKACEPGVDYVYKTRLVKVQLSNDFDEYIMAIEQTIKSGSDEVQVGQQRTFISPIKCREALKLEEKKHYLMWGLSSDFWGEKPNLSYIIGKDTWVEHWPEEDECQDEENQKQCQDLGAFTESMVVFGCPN
T1: ATRX ADD domain 167-289 K251R/F284Y (Homo sapiens); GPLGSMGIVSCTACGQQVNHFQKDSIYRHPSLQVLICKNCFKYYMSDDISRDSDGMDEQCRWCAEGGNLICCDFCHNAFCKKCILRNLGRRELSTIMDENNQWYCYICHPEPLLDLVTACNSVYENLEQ
T2: CAP1/CAP2 heterodimer (Saccharomyces cerevisiae); chain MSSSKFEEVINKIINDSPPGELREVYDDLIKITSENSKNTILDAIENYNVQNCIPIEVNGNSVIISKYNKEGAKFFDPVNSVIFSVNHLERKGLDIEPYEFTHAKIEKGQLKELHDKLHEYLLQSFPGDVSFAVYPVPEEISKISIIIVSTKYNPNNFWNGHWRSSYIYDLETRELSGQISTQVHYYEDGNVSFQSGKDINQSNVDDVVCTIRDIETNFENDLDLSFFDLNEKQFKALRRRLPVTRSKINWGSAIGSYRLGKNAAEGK; chain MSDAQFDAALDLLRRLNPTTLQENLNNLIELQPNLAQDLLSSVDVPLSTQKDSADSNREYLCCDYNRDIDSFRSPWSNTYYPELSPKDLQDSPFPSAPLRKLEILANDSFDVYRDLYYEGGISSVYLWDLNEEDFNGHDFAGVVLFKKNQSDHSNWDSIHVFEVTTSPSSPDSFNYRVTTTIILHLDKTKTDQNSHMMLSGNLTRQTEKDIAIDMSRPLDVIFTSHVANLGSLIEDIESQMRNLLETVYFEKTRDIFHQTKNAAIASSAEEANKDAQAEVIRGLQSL
B1: UBP10 157-792 (Saccharomyces cerevisiae, UniProt P53874); chain KASLKERDNADKGDGEDIGEDIGEDIGEDIGEDIGEDIGENLGSPLATIDDSSNENEKEKRKELSTSISSDDEIEDDEDEDDMDYDSSAMEKELPEEEENDSSSKISEGEKKSLYQDLMENSTVEVNRYEPVNNTKENGNRNPKGEEEEEEEEELKHKSRSITPPVTISNLSNFYQFNENINDRGSLNSTRIVKNWGDKFTNLKPRGLLNHGVTCYTNAAVQAMLHIPSIQHYLFDILMGKYDSTISKNSVSYTLAETSKKMWLPVSKNPRKNVSASYINPKHLISRLDDINCMMSEWQQEDSHEYFMSLMSRLQEDSVPKGHKLIESIIYDIFGGLLKQIVTCKSCGSISKTEQPFYDLSLHLKGKKKLDPNSDLSSDSINGTSATTSTTTSNAATKPSLSSSSSVNLNNGSPFAAASDLSSANRRFSIEKSIKDFFNPELIKVDKEQKGYVCEKCHKTTNAVKHSSILRAPETLLVHLKKFRFNGTSSSKMKQAVSYPMFLDLTEYCESKELPVKYQLLSVVVHEGRSLSSGHYIAHCKQPDGSWATYDDEYINIISERDVLKEPNAYYLLYTRLTPKSVPLPLAKSAMATGNVTSKSKQEQAVNEPNNRPLKINSKKNNRKKWKKNKKRKFTK
B2: IGSF10 29-281 (Homo sapiens, UniProt Q6WRI0); sequence looked up; chain CPRRCACYMPTEVHCTFRYLTSIPDSIPPNVERINLGYNSLVRLMETDFSGLTKLELLMLHSNGIHTIPDKTFSDLQALQVLKMSYNKVRKLQKDTFYGLRSLTRLHMDHNNIEFINPEVFYGLNFLRLVHLEGNQLTKLHPDTFVSLSYLQIFKISFIKFLYLSDNFLTSLPQEMVSYMPDLDSLYLHGNPWTCDCHLKWLSDWIQEKPDVIKCKKDRSPSSAQQCPLCMNPRTSKGKPLAMVSAAAFQCAK
B3: mglB (Myxococcus xanthus, UniProt Q1DB03); sequence looked up; chain MGTQLVMYEEEFTKINAVCDRLTKDANAKVVFLVDKNGQLISSAGQTQNIDTTSLASLTAGNVAAMGGLAKLIGENEFPNQFHEGAKDSLYMTIVGSRVVLVVIFDNRTSLGLVRLRIKKASDELTKIFESLVKKTDSPGAGSPFAEISDDDIDNLFSE
B4: CFH 1108-1231 (Homo sapiens, UniProt P08603); sequence looked up; chain KCGPPPPIDNGDITSFPLSVYAPASSVEYQCQNLYQLEGNKRITCRNGQWSEPPKCLHPCVISREIMENYNIALRWTAKQKLYSRTGESVEFVCKRGYRLSSRSHTLRTTCWDGKLEYPTCAKR
B5: PLXNC1 1198-1305 T1264V/R1265V (Homo sapiens, UniProt O60486); chain TVALNVVFEKIPENESADVCRNISVNVLDCDTIGQAKEKIFQAFLSKNGSPYGLQLNEIGLELQMGVVQKELLDIDSSSVILEDGITKLNTIGHYEISNGSTIKVFKK
B6: PUX5 301-421 M393A/F395A (Arabidopsis thaliana, UniProt Q7Y175); chain KNPFQGVGRTLGASGSGSSSAPQASSAPMNVAPAPSRGLVVDPAAPTTSIQLRLADGTRLVSRFNNHHTVRDVRGFIDASRPGGSKEYQLLTAGAPPKQLTELDQTIEQAGIANAVVIQKF
B7: SIL1 20-421 (Saccharomyces cerevisiae, UniProt Q08199); chain TILHSSIHSVPSGGEIISAEDLKELEISGNSICVDNRCYPKIFEPRHDWQPILPGQELPGGLDIRINMDTGLKEAKLNDEKNVGDNGSHELIVSSEDMKASPGDYEFSSDFKEMRNIIDSNPTLSSQDIARLEDSFDRIMEFAHDYKHGYKIITHEFALLANLSLNENLPLTLRELSTRVITSCLRNNPPVVEFINESFPNFKSKIMAALSNLNDSNHRSSNILIKRYLSILNELPVTSEDLPIYSTVVLQNVYERNNKDKQLQIKVLELISKILKADMYENDDTNLILFKRNAENWSSNLQEWANEFQEMVQNKSIDELHTRTFFDTLYNLKKIFKSDITINKGFLNWLAQQCKARQSNLDNGLQERDTEQDSFDKKLIDSRHLIFGNPMAHRIKNFRDEL
B8: LRG1 (Homo sapiens, UniProt P02750); sequence looked up; chain VTLSPKDCQVFRSDHGSSISCQPPAEIPGYLPADTVHLAVEFFNLTHLPANLLQGASKLQELHLSSNGLESLSPEFLRPVPQLRVLDLTRNALTGLPPGLFQASATLDTLVLKENQLEVLEVSWLHGLKALGHLDLSGNRLRKLPPGLLANFTLLRTLDLGENQLETLPPDLLRGPLQLERLHLEGNKLQVLGKDLLLPQPDLRYLFLNGNKLARVAAGAFQGLRQLDMLDLSNNSLASVPEGLWASLGQPNWDMRDGFDISGNPWICDQNLSDLYRWLQAQKDKMFSQNDTRCAGPEAVKGQTLLAVAKSQ
B9: NFE2L2 155-220 (Homo sapiens, UniProt Q16236); fluorescein label; chain GVFIATNQAQSPETSVAQVAPVDLDGMQQDIEQVWEELLSIPELQCLNIENDKLVETTMVPSPEAKL
B10: ficolin-A mature (Rattus norvegicus, UniProt Q9WTS8); sequence looked up; chain SQALGQESGACPDVKIVGLGAQDKVAVIQSCPSFPGPPGPKGEPGSPAGRGERGLQGSPGKMGPPGSKGEPGTMGPPGVKGEKGERGTASPLGQKELGDALCRRGPRSCKDLLTRGIFLTGWYTIYLPDCRPLTVLCDMDVDGGGWTVFQRRVDGSINFYRDWDSYKRGFGNLGTEFWLGNDYLHLLTANGNQELRVDLREFQGQTSFAKYSSFQVSGEQEKYKLTLGQFLEGTAGDSLTKHNNMAFSTHDQDNDTNGGKNCAALFHGAWWYHDCHQSNLNGRYLPGSHESYADGINWLSGRGHRYSYKVAEMKIRAS
B11: CFH domains 1108-1231 (Homo sapiens, UniProt P08603); sequence looked up; chain KCGPPPPIDNGDITSFPLSVYAPASSVEYQCQNLYQLEGNKRITCRNGQWSEPPKCLHPCVISREIMENYNIALRWRAKQKLYSRTGESVEFVCKRGYRLSSRSHTLRTTCWDGKLEYPTCAKR
Chain of UniProt P26039 (whole entry, looked up): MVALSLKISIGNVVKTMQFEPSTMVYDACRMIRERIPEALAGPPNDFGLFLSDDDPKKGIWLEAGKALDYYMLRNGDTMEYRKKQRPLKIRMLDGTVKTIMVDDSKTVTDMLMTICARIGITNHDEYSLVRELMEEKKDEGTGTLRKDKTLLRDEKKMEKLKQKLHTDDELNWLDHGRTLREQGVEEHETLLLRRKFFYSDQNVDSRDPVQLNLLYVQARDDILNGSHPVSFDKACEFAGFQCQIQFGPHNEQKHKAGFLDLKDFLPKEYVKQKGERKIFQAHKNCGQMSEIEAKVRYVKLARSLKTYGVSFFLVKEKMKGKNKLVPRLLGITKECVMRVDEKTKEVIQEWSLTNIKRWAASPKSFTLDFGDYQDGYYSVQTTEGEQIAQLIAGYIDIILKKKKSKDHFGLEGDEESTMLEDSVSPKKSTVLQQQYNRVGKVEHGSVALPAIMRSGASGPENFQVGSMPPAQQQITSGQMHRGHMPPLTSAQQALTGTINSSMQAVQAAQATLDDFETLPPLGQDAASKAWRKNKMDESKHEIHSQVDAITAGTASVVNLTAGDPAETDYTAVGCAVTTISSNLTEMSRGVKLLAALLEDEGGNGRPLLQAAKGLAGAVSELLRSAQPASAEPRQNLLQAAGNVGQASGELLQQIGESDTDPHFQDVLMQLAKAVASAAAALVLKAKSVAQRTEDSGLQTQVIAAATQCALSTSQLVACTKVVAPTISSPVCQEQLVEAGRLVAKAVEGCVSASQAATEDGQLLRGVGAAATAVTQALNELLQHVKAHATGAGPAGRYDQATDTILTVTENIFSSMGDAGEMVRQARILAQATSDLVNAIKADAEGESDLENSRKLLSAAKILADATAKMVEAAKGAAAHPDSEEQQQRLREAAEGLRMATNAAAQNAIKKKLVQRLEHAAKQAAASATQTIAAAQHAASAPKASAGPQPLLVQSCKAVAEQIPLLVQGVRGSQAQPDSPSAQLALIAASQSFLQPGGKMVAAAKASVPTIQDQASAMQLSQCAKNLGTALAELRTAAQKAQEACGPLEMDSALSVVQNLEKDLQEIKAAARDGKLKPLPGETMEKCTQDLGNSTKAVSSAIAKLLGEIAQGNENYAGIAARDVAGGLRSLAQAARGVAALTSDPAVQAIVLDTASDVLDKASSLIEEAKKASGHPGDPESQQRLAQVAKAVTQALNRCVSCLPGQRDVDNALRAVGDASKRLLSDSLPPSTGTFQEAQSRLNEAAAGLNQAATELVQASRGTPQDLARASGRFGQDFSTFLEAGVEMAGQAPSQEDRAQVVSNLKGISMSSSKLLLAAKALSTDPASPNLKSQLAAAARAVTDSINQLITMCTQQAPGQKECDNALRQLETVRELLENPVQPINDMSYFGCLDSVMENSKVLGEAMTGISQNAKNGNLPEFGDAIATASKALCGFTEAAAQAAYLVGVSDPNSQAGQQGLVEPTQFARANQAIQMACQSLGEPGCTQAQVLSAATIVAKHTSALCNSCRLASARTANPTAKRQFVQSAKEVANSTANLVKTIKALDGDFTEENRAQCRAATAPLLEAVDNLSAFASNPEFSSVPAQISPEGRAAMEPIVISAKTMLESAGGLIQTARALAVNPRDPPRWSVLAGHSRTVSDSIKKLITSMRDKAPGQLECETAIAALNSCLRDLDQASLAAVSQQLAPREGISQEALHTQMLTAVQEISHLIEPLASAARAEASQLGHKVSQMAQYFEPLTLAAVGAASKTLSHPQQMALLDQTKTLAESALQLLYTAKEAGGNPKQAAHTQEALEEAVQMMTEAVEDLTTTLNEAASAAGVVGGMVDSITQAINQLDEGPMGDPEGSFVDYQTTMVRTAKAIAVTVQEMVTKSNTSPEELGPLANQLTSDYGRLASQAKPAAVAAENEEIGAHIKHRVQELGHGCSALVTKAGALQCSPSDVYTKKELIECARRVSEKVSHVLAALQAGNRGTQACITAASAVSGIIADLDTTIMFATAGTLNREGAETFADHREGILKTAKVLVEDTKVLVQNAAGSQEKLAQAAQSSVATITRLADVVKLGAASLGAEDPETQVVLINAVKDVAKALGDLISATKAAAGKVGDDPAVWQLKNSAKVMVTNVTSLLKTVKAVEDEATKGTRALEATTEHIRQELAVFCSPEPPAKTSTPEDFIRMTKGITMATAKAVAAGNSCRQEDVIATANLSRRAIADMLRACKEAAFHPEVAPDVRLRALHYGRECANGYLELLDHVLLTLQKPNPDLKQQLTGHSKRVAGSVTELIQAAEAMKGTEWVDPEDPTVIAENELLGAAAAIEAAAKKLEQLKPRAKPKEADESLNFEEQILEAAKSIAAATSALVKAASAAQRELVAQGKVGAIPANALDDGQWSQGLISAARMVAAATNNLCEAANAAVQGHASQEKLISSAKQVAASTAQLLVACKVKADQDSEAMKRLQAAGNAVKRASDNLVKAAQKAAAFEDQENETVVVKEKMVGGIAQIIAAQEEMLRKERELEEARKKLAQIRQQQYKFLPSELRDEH

GSGAGRETEV
binding intensity (human SCRIB PDZ3-4 tandem (MBP fusion); automated holdup; peptide, purified PDZ protein; concentration not given, unit not given; relative to: biotin control resin, higher = stronger binding): 0.961

B1 (UBP10 157-792)
Kd (HTA1/HTB1 H2A/H2B heterodimer 2-132 (Saccharomyces cerevisiae); ITC): 0.158 ± 0.071 µM

PUX5 fragment (Arabidopsis thaliana)
Kd (CDC48A; ITC; 25 °C): 3.3 ± 0.5 µM

colistin
MIC (Escherichia coli; broth microdilution; clinical isolate RKI-No 6 A-6): 8 µg/mL

B2 (IGSF10 29-281)
Kd (GAS1 (Homo sapiens, UniProt P54826); ITC): 0.376 µM

KHNYN NYN-CTD
Kd (ZC3HAV1 RBD 2-227 (Homo sapiens, UniProt Q7Z2W4); BLI): 0.31 ± 0.2 µM

KPGKGSETVV
binding intensity (human SCRIB PDZ3-4 tandem (MBP fusion); automated holdup; peptide, crude extract; concentration not given, corrected by standard peak, unit not given; relative to: biotin control resin, higher = stronger binding): 0.245

B3 (mglB)
Kd (mglA (Myxococcus xanthus, UniProt Q1DB04); ITC; 25 °C, added: GDP 100 µM): 0.751 ± 0.111 µM

B4 (CFH 1108-1231)
Kd (C3; SPR): 8.2 ± 0.6 µM

SDEMPNNAKRRRRSQSMIANKRIHQAFQEDEGDEDWEEEEHKPKAKRR (abo1 25-72 (Schizosaccharomyces pombe, UniProt O14114))
Kd (spt16 1-442 K264E/F364A/R365E (Schizosaccharomyces pombe, UniProt O94267); BLI): 20 ± 2.5 µM

CALLLSAPRR (GOT2 (Gallus gallus); fluorescein label)
Kd (HSPA9 47-555 (Homo sapiens, UniProt P38646); FP; peptide): 18.9 µM

B5 (PLXNC1 1198-1305 T1264V/R1265V)
Kd (RND1 5-200 (Homo sapiens, UniProt Q92730); SPR): 19.8 ± 2.86 µM

SCN2A fragment R1914A (Homo sapiens) (sequence not shown)
Kd (CALM1 (Homo sapiens, UniProt P0DP23); fluorescence titration; added: CaCl2): 0.292 µM

B6 (PUX5 301-421 M393A/F395A)
Kd (CDC48A; ITC; 25 °C): 4 ± 0.3 µM

GCVRLHESCLGQQVPCCDPAATCYCVGRGDDNLKCYCR (designed peptide AgRP scaffold)
Kd (ITGAV/ITGB3 K562 cells; flow cytometry; designed binder, U87MG): 0.0016 µM

B7 (SIL1 20-421)
Kd (HSPA5 28-654 K294F (Homo sapiens, UniProt P11021); MST): 38 ± 8 µM

ARTKQTARKS (H3C1 1-10)
Kd (T1, ATRX ADD domain 167-289 K251R/F284Y (Homo sapiens); ITC; peptide): 3.6 µM

B8 (LRG1)
Kd (ERBB3 20-643 (Homo sapiens, UniProt P21860); BLI): 0.149 µM

SPTBN2 actin-binding domain K61E (sequence not shown)
Kd (ACTA1 F-actin (Oryctolagus cuniculus, UniProt P68135); co-sedimentation): < 1 µM

B9 (NFE2L2 155-220)
Kd (EP300 TAZ2 1723-1812 x (Homo sapiens, UniProt Q09472); fluorescence titration): 31.2 ± 16 µM

B10 (ficolin-A mature)
Kd (C1r/C1s full-length tetramer (Homo sapiens); SPR; added: CaCl2 140 mM): 0.028 µM

comA (Bacillus velezensis)
Kd (RapC (Bacillus velezensis); BLI): 0.0135 µM

EAEEPSLLKKLLLAPANTQ (PPARGC1A peptide; N-terminal 5-FAM)
Kd (PPARG 202-477 (Homo sapiens, UniProt P37231-2); FP; peptide): 0.425 µM and 1.25 µM

KLLITIHDRKEAAKAEEERARAKWDTANNPLYKEATSTFTNITYRGT (ITGB3 cytoplasmic tail 742-788 FF/AA (UniProt P05106); sequence looked up)
Kd (Tln1 309-405 (Mus musculus, UniProt P26039); NMR titration): 2030 µM

RDETVKETKPLVHPNKNRTRGPRRKLPTRV (BSP1 547-576 (Saccharomyces cerevisiae); N-terminal FITC)
Kd (T2, CAP1/CAP2 heterodimer (Saccharomyces cerevisiae); fluorescence polarisation; peptide; one-site fit): 0.045 µM

EVPVPPPVPPRRRPES (SOS1 peptide; FITC label)
Kd (GRB2 SH3-1, pY52 (Homo sapiens); fluorescence polarization; peptide): 9.4 µM

B11 (CFH domains 1108-1231)
Kd (C3; SPR): 6.8 ± 0.2 µM

LE1 (Glycine max, UniProt P05046)
Kd (asialo ovine submaxillary mucin, asialo (sialic acid removed) (Ovis aries); protein array): 0.0006 µM

Excerpt of the above:
B9 (NFE2L2 155-220)
Kd (EP300 TAZ2 1723-1812 x (Homo sapiens, UniProt Q09472); fluorescence titration): 31.2 ± 16 µM

B10 (ficolin-A mature)
Kd (C1r/C1s full-length tetramer (Homo sapiens); SPR; added: CaCl2 140 mM): 0.028 µM

comA (Bacillus velezensis)
Kd (RapC (Bacillus velezensis); BLI): 0.0135 µM

EAEEPSLLKKLLLAPANTQ (PPARGC1A peptide; N-terminal 5-FAM)
Kd (PPARG 202-477 (Homo sapiens, UniProt P37231-2); FP; peptide): 0.425 µM and 1.25 µM

KLLITIHDRKEAAKAEEERARAKWDTANNPLYKEATSTFTNITYRGT (ITGB3 cytoplasmic tail 742-788 FF/AA (UniProt P05106); sequence looked up)
Kd (Tln1 309-405 (Mus musculus, UniProt P26039); NMR titration): 2030 µM
